# Measurements from different studies.
# Numbered parts are unrelated; each lists some results of a single study.

# Block 1 — mode: inhibitor; tested at: 20 µM
# Target: Replicase polyprotein 1ab, nsp13 helicase (rep, Severe acute respiratory syndrome coronavirus 2, UniProt P0DTD1)
SMILES,inhibition [%]
CCCCc1cc2ccccc2c(OCCN(C)C)n1,6.55
O=C1C[C@@H](c2ccc(O)cc2)Oc2cc(O)ccc21,0.32
O=C(c1ccc(/C=C/c2n[nH]c3ccccc23)cc1)N1CCNCC1,2.84
COc1ccc(S(=O)(=O)N2c3ccc(Cl)cc3[C@](O)(c3ccccc3Cl)[C@@H]2C(=O)N2CCC[C@H]2C(N)=O)cc1OC,2.14
CCN1C[C@]2(COC(=O)c3ccccc3N3C(=O)C[C@H](C)C3=O)CC[C@H](OC)[C@@]34[C@@H]5C[C@H]6[C@H](OC)[C@@H]5[C@](O)(C[C@@H]6OC)[C@@](O)([C@@H](OC)[C@H]23)[C@@H]14,2.26
CCC(CC)CC1(C(=O)Nc2ccccc2SC(=O)C(C)C)CCCCC1,-1.98
CCC[C@H](Nc1nc(-c2ccc(NC(=O)NCC)c(OC)c2)ncc1C)c1cccnc1,-1.69
Cn1cc(C2=C(c3cn(C4CCN(Cc5ccccn5)CC4)c4ccccc34)C(=O)NC2=O)c2ccccc21,11.7
Cc1nc(=O)c2cc(CN(C)c3ccc(C(=O)N[C@@H](CCC(=O)O)C(=O)O)s3)ccc2[nH]1,0.49
CC1(C)CCC(C)(C)c2cc(Cn3cccn3)c(/C=C/c3ccc(C(=O)O)cc3)cc21,18
CCCC(=O)c1cc(F)ccc1OCC(O)CNC(C)(C)C (stereo not drawn),-5.04
CCN(CC)Cc1ccc2cc(COC(=O)Nc3ccc(C(=O)NO)cc3)ccc2c1,9.11
NCCNS(=O)(=O)c1ccc(Cl)c2ccncc12,5.01
COc1ccc2ccc(=O)oc2c1CC=C(C)C,13.5
CN1CC[C@@H]2CN3CCc4cccc(c43)[C@@H]2C1,2.77
CCS(=O)(=O)c1ccc2oc(-c3ccc4ccccc4c3)nc2c1,-3.33
NC[C@@H]1CC[C@@H](N)[C@@H](O[C@H]2[C@H](O)[C@@H](O[C@H]3O[C@H](CO)[C@@H](O)[C@H](N)[C@H]3O)[C@H](N)C[C@@H]2N)O1,3.87
CCCC(O)C(CC)CO (stereo not drawn),-0.52
c1cc(OCCN2CCCCC2)cc(-c2n[nH]c3ccc(-c4nnc[nH]4)cc23)c1,10.7
CC(C)(O/N=C(\C(=O)N[C@@H]1C(=O)N2C(C(=O)[O-])=C(C[n+]3ccccc3)CS[C@H]12)c1csc(N)n1)C(=O)O,6.81
CN(C)C(=O)[C@H](O)[C@H](Cc1ccccc1)NC(=O)c1cc2cc(Cl)ccc2[nH]1,-6.14
Oc1ccc(Nc2nc(-c3ccc(Cl)cc3)cs2)cc1,2.14
CNNCc1ccc(C(=O)NC(C)C)cc1,5.21
CCOC(=O)OC(C)OC1=C(C(=O)Nc2ccccn2)N(C)S(=O)(=O)c2ccccc21 (stereo not drawn),11.2
C=C(C)CN1CC[C@]23c4c5ccc(O)c4O[C@H]2c2[nH]c4ccccc4c2C[C@@]3(O)C1C5,3.88

# Block 2 — technique: protein-binding microarray; form: double-stranded DNA, one strand shown; medium: in vitro; tested at: 0.8 µM; notes: whole 60-bp probe, no competitor; reading: higher = stronger binding
# Target: Centromere-binding protein 1, full length, N-terminal tag (CBF1, Saccharomyces cerevisiae, UniProt P17106, residues 1-351)
# Sequence of UniProt P17106 (whole entry, looked up): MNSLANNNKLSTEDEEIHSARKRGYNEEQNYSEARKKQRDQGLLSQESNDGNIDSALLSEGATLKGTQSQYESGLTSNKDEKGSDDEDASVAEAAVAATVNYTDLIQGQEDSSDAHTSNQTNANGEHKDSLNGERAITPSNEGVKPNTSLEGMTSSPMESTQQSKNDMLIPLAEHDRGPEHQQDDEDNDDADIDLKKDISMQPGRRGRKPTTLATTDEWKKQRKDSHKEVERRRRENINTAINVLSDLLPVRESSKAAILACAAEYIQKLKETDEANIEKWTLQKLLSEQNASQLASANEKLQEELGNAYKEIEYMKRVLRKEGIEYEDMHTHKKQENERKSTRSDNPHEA
Strand,fluorescence intensity
CCTAACTACTATAGTTCTGATGCATAGCTTCGTACAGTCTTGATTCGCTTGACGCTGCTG,489 a.u.
GAATTTATGAGCTGTCCCGTGAGCGTAGCGACGTAGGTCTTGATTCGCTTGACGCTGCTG,654 a.u.
CTAACATAAATAGTTGACGTGGTAAATTTTCATTTCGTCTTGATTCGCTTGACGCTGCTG,521 a.u.
CTACCCAACAATTACATCAGAACCCACACTCTCTTCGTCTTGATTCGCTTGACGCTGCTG,520 a.u.
CTATTACTAAAAAATCGCGTGCACTTTCATGGTTTCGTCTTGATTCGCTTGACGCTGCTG,583 a.u.
GAAACGCGTAAACGTGATGTGATATACGGAAGATAGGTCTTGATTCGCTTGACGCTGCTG,2570 a.u.
CTAAACATAACGATAAACGTGGTATAGTTTTCGTTCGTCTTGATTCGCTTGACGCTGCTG,619 a.u.
CTAACCACTCGATACCCCATCACCTGCATAATTTTCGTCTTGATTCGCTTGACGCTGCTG,1090 a.u.

# Block 3 — technique: RNA Bind-n-Seq; form: RNA; medium: in vitro; tested at: 15 pmol; notes: 4-mer, random 30-nt RNA, single round; together with: 3 µM RocA, 2 mM AMP-PNP; relative to: mean of 4-mers; reading: higher = stronger binding
# Target: Eukaryotic initiation factor 4A-I (EIF4A1, Homo sapiens, UniProt P60842, residues 1-406, full length assumed)
# Sequence of UniProt P60842 (whole entry, looked up): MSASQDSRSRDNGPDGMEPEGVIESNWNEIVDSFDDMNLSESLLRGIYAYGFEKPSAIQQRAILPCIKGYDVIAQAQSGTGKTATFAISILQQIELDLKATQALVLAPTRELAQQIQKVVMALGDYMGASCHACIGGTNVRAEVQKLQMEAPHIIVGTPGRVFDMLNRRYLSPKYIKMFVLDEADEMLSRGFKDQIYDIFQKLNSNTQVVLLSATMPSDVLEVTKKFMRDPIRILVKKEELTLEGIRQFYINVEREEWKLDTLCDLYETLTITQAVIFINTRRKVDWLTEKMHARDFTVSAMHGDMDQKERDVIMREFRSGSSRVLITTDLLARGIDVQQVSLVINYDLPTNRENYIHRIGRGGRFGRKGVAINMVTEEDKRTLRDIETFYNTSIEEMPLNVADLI
Strand,4-mer enrichment Z-score
UAUC,-1.04
CUAC,-1.2
GAUC,-0.707
GACA,-0.564
AUAU,0.183

# Block 4 — technique: RNA Bind-n-Seq; form: RNA; medium: in vitro; tested at: 365 nM; relative to: no-protein control; reading: higher = stronger binding
# Target: RNA binding protein fox-1 homolog 2, RRM domain, GST-SBP tag (RBFOX2, Homo sapiens, UniProt O43251-10, residues 100-194)
# Notes: natural RNA segment, single round, ends assumed
# Construct (chain): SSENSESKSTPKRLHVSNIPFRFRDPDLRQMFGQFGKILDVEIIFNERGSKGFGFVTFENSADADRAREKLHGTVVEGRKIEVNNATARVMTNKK
Strand,RBNS enrichment (R)
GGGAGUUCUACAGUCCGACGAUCACUUGGAAGUGGUGAAUUAUUUUAUAUAAGGUCAUUUAAAUAUCUAUUUAAAAAAUAGGAAGCUGCUUUUAUAUUUAAUAAUAAAAGAAGUGCACAAGCUGCCACGUGUGUGGAAUUCUCGGGUGCCAA,0.574
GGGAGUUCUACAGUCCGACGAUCGAAAUUUUGUACAUUGCUUUUCCCACCUUUUCCUUUUUCUUCUUUCUUGUCUGUAUUGGUUUUUGAUCACGGCCUGGUGUUGUGAUACUGGGAAGAGCAUUAGCCAAGAAUGGAAUUCUCGGGUGCCAA,0.849
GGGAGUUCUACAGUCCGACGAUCUAUAACAUAUUUAUAAAUGUUACUCAGGUUAAAAGUAUUUAAGAAUACAGUUAACUAAUUGUAAAUAUGCUGUUAACCAAAAGAGCUUUCCCUCCCUCACUUUUUCCUUUUGGAAUUCUCGGGUGCCAA,0.386
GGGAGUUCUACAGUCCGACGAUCCAGAACUUUCUGAGCUGGCAAAGGCUUAAACAUCUGCCUGGGUUCAGCAGGCAACCUGCCCGUCUGUACAAAAAACUCAAAGGGCUGAGAUGAACGUCUUUCCUCUCCUGUGGAAUUCUCGGGUGCCAA,0.213
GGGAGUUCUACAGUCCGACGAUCUUGCUUUAAACUCUGUUCAAUCCCCAGGCUUUCUGAGUCCGCUCUACCUUUUCUGGGUGAUCUUGUGGCACAUGUAGCAAUGUUUCUUUCAUUCCUGUCCCUUCCUGGCUUGGAAUUCUCGGGUGCCAA,0.331
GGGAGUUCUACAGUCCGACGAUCGGUGUUCAACACACGAAAUGCUCAAUAAACAUCAGGCUGUCCCCUCCUGGGGCAGGCCUUGAAACGGUGCGUGUGAGUAAUGAGAGGUUUAUAAUCCAGCUGUGUCUUAUUGGAAUUCUCGGGUGCCAA,0.428
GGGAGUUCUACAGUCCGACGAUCGCUAGCAAAGACUUGUGUGAUGCCUCCGAAGGGGCUCUGAGUUCUGGGGUGGGAGUUUUGCUCUCUGUCAGGUGUGAUAAAAUGUUGAACCCUCCCCACCACCACUUUUUUGGAAUUCUCGGGUGCCAA,0.85
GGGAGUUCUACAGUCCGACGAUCCAAGAAAGAGCAAAUUUGUCCUGAACCUGAAUUUAUUUUUAUAAGAAAACCUGUUAUUACCUGUGUGCUUUUCACUUGGUUGUUCAUGAACUGCAGAGGGGGCUCCUUGAUGGAAUUCUCGGGUGCCAA,0.417

# Block 5 — cell line: HEK-293T-ACE2; tested at: concentration not given; relative to: vehicle
SMILES,cell number
S=c1nc[nH]c2nc[nH]c12,106%
CC(C)(C)c1cc(C(C)(C)C)c(NC(=O)c2c[nH]c3ccccc3c2=O)cc1O,97.9%
FC(F)(F)C(Cl)Br (stereo not drawn),101%
COc1cc2c(cc1Cc1cccc(Cl)c1F)c(=O)c(C(=O)O)cn2[C@H](CO)C(C)C,104%

# Block 6 — observed: enzyme activity; mode: inhibitor; tested at: 20 µM
# Target: Replicase polyprotein 1ab, main protease (rep, Severe acute respiratory syndrome coronavirus 2, UniProt P0DTD1)
Structure (SMILES),inhibition
O=C(c1ccc(Cl)cc1)c1cc([N+](=O)[O-])ccc1N1CCOCC1,60.2%
O=C1OC2(c3cc(I)c(O)c(I)c3Oc3c2cc(I)c(O)c3I)c2c(Cl)c(Cl)c(Cl)c(Cl)c21,92.1%
Nc1nc(-c2ccc(Cl)c(Cl)c2)c(-c2ccncc2)s1,-20.4%
C[n+]1c2cc(N)ccc2cc2ccc(N)cc21,-1.1%

# Repeated from above (block 1):
SMILES,inhibition [%]
Oc1ccc(Nc2nc(-c3ccc(Cl)cc3)cs2)cc1,2.14
CCOC(=O)OC(C)OC1=C(C(=O)Nc2ccccn2)N(C)S(=O)(=O)c2ccccc21 (stereo not drawn),11.2
CCN1C[C@]2(COC(=O)c3ccccc3N3C(=O)C[C@H](C)C3=O)CC[C@H](OC)[C@@]34[C@@H]5C[C@H]6[C@H](OC)[C@@H]5[C@](O)(C[C@@H]6OC)[C@@](O)([C@@H](OC)[C@H]23)[C@@H]14,2.26
CCN(CC)Cc1ccc2cc(COC(=O)Nc3ccc(C(=O)NO)cc3)ccc2c1,9.11
O=C1C[C@@H](c2ccc(O)cc2)Oc2cc(O)ccc21,0.32
CCC(CC)CC1(C(=O)Nc2ccccc2SC(=O)C(C)C)CCCCC1,-1.98
CCCC(O)C(CC)CO (stereo not drawn),-0.52
c1cc(OCCN2CCCCC2)cc(-c2n[nH]c3ccc(-c4nnc[nH]4)cc23)c1,10.7
